Published values pooled from the literature.
A part holds a random share of what one study measured. Positions count from the first letter of the parent shown.

Block 1 — method: RNA Bind-n-Seq; molecule type: RNA; matrix: in vitro; concentration: 365 nM; reference: no-protein control; reading: higher = stronger binding; endpoint: RBNS enrichment (R)
Target: RNA binding protein fox-1 homolog 2, RRM domain, GST-SBP tag (RBFOX2, Homo sapiens, UniProt O43251-10, residues 100-194)
Setting: natural RNA segment, single round, ends assumed
Constant ends, left off below: GGGAGUUCUACAGUCCGACGAUC … UGGAAUUCUCGGGUGCCAA
Target sequence (chain): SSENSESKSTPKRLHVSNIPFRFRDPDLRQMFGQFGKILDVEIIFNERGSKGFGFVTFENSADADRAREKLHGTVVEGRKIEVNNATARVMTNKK
CAGUCCCAGCCAAGCCCCCAAUCCCAGCGGAGACUGUGCCCUGCUCAGAGCUCCCAAGCCUUCCCCCACCACCUCACUCAAGUGCCCCUGAAAUCCCUGCCAGACGGCUC: 0.627
GCAGCUCACAGUACCAGCCAGCUUUAGACCUCCCAGUGCAAAGCCCAGCGCAGCACUAAGCCUUAAGCCACCCAAGGGCUGACACACCAUGCAGAGCUACGAAAUCUGUG: 0.449
ACUUCAACUUUGGCAUUUCAUUCAUACUUCUGUAGAGAACGGAAAACUAUUGUCCAUUAACAUGAUAUGCUAAACAUUCUAUAAACAUUCUUGUAUUUAUGUGAGACUUG: 0.401
GCUCUCUCUGGGUGAGUGUGGGGUCUGGGUGUCCUUUGCAUUCCCCUCCUCACCCCAGGUGCCUUAAGACAGCCCAGUUCUAACCUGAUAUUCAUGACCAAACUAGCCCU: 0.572
CAGCUCUUGUGCCAAGGAGGAGUGGUUGUUGUUGUUUUGUUUUGAAGACUUAAACUCUGCACAAAGAUCCUGGUUCAGCUGUGUACUAUAGGUUGGUAGGAAGUGUCGUG: 3.22
UUUAUUUGUGAUGACACAAUAGAGCCAGAAUAUUAGCUAACAACGUUGAAGGAGGUGUUGGGUGUUUUUAAAUAUUUAGUUAAUAUAUUCCUCAUGGACAUAAAAUACAU: 1.05
AGAAAGAAUUGUCCUCCUGUAGGUUCCAUUCCUUCGGAUGGGCCUACCUUACCAUUGUUAGGACAGCGUGAGUAGACCUGCUUGCUCUUCUCACUUUCCUCAUUGGCUUA: 3.93
AGAAUUGGAGAGCAGGCACAUCAACUGAUCUCAUUUCUAGAGAGCCCCUGACAAUCCUGAGGCUUCAUCAGGAGCUAGAGCCAUUUAACAUUUCCUCUUUCCAAGACCAA: 0.316
UUGUAAGCUUGUGGAAAUUAUUUAAGUAUUUUAAAGCAUAUUUUCUUGUAAAUAUAUCCUAUCCGAAGUGUCAGCAGUUACGUUAGUUAAUACCGUGUUAUCUGCUGUAU: 0.923
CGGUUCUCAUCUCAGGUUGGUAUCUUUCAUCCAGUCCAAAAUGCAAGCGGCACUAAUGAAUUGUUCUUAAUCCGGCACGUCUAAUUUGACACGUUUUCAUGAAGGAAUAA: 0.641
UAGUUCCCUCAACACAAUUGCUAAUGCAGAAUAGUGUAAAAUGCGCUUCAAGAAUGUUGAUGAUGAUGAUAUAGAAUUGUGGCUUUAGUAGCACAGAGGAUGCCCCAACA: 1.98
UGACCAGAUUGUUUGGCUAACACAUCCCGAAGAAUGAUUUUGUCAGGAAUUAUUGUUAUUUAAUAAAUAUUUCAGGAUAUUUUUCCUCUACAAUAAAGUAACAAUUAACU: 0.416

Block 2 — target: CCNB2, cyclin fold, Cln2 fusion (human); method: yeast growth competition, sequencing; matrix: yeast; setting: weak parent motif; reference: not given; reading: higher = stronger binding; endpoint: normalised enrichment score
Starting sequence: WEE1 docking peptide (human); HKTFRKLRLFDTP
R5L: -0.254
H1T: 1.14
H1V: -0.0663
T12C: 0.617
L9D: 0.342
L7T: 0.623
R5E: 0.647
K6A: 0.101
R8A: 0.0969
F10A: 0.765
L9V: 0.604
K6E: 0.376
T3H: 0.693
R8M: 0.297
D11K: 0.703
F4E: 0.0544
T3K: 0.0548
L7E: 0.647
L7K: 0.759
R8E: 0.449
R8Q: 0.894
P13A: 0.161
L7N: 0.814
H1A: 0.744
L7I: 1.14

Block 3 — method: DHFR PCA, deep sequencing; matrix: yeast; with: (+)-ABA 0.0091 µM; reference: wild-type fitted maximum; reading: higher = stronger binding; endpoint: relative binding score
Target: ABI1, truncated, D143A, DHFR fusion (Arabidopsis thaliana)
Setting: methotrexate growth selection, single substitutions
Starting sequence: PYL1, truncated, DHFR fusion (Arabidopsis thaliana); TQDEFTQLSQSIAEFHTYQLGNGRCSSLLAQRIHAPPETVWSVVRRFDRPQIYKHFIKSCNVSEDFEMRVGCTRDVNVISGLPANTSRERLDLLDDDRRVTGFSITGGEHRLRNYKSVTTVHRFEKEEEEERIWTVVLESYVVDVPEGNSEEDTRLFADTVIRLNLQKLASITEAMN; partner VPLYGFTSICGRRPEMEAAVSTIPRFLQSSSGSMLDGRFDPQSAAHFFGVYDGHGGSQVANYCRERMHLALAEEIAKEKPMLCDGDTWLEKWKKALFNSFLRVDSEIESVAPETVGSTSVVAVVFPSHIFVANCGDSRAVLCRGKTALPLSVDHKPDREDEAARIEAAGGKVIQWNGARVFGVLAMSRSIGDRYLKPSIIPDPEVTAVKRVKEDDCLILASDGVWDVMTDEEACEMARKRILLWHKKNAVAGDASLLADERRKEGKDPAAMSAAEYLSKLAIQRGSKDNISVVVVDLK
V121K: -3.2%
V70W: -3.17%
L20I: 42.9%
I33S: -2.18%
R69C: 12.6%
L91A: 4.67%
G21W: -1.42%
K58W: 1.89%
Y18P: 2.97%
E174A: -1.08%
S117G: 5.73%
L156S: 3.22%
E67I: 21.2%
A84N: 35.8%
D3I: 13.4%
L112R: -0.573%

Block 4 — target: HLF, bZIP domain (human); method: DHFR protein complementation; matrix: yeast; reference: wild-type JUN-FOS pair; reading: higher = stronger binding; endpoint: binding fitness
Setting: single substitutions, most at no-binding floor
Starting sequence: JUN, bZIP domain (human); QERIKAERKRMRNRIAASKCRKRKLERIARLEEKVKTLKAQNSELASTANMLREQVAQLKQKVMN; partner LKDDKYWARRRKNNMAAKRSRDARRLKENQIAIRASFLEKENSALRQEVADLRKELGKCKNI
E32V: -1.28 natural log
E32H: -1.4 natural log
E33C: -1.51 natural log
L52S: -1.54 natural log
Q55H: -1.23 natural log
R30T: -1.47 natural log
N42Y: -1.32 natural log
L31P: -1.47 natural log
E32G: -1.44 natural log
A57R: -1.43 natural log
Q55S: -1.33 natural log
E33L: -1.4 natural log

Block 5 — method: protein-binding microarray; molecule type: double-stranded DNA, one strand shown; matrix: in vitro; concentration: 2540 nM top; setting: 60-bp whole probe; with: salmon DNA 0.4 mg/ml; reference: random background probes; reading: higher = stronger binding; endpoint: fitted relative affinity; constant ends, left off below: GCCTAGCAC … GTCTTGATTCGCTTGACGCTGCTG
Target: Interferon regulatory factor 3, full length, phosphomimetic (IRF3, Homo sapiens, UniProt Q14653, residues 1-427, S386D/S396D/S398D/S402D/T404D/S405D)
Residues (chain): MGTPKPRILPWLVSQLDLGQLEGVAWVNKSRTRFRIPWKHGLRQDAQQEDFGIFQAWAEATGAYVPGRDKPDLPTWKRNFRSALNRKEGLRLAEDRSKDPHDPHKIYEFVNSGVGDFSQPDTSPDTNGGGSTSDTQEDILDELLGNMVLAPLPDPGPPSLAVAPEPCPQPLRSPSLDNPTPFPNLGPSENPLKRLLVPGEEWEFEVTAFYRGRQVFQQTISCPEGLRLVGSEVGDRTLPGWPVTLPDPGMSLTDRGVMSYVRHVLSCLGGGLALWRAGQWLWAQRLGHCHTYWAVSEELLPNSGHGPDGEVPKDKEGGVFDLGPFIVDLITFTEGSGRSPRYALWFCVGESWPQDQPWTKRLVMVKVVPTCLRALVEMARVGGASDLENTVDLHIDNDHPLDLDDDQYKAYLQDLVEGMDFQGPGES
GACGATTTCTGGACTGGAGACGTGCTA: 0.841 z-score
GCCGAACTGGGGTTTCGAGACGTGCTA: 1.23 z-score
TTAGGTTTCGGGCTTCGGTTAGTGCTA: 3.22 z-score
TTAGGTCTCTGTATCGGTTAGTGCTAG: 1.52 z-score
TGTGTTTTCATTTTATGACAGTGCTAG: 4.22 z-score
GACGGTCTCCTTATCCCGACGTGCTAG: 3.28 z-score
CTTGCTTGGTGTCTCTGGCCGTGCTAG: -0.587 z-score
TTAGGTGTCCTTTCCCTTTAGTGCTAG: 6.02 z-score
TTAGGTATCGGCCTCGGTTAGTGCTAG: 0.315 z-score
TTAGGATTCGACTATCGGTTAGTGCTA: 0.536 z-score
TTAGATCTCAGGCTGGATTAGTGCTAG: -0.496 z-score
GGAGGGGGGCGGGGCGGTGGGTGCTAG: 0.0875 z-score
TCAAATATTTACCTCTCACTGTGCTAG: 0.218 z-score
TTAGGACTCCTTCTCCTTTAGTGCTAG: 2.03 z-score
TTAGTTATCCTTTTCCTTTAGTGCTAG: 6.04 z-score
TACTTTCTACGTCTGATTTTGTGCTAG: 1.46 z-score
ATATATATTATATATTTATGTGTGCTA: 0.746 z-score
TTAGAACTGGAGACTGGATTAGTGCTA: -0.64 z-score
AACGGTTTCGGTATCGGGACGTGCTAG: 8.03 z-score
TTAGGTTTCCTACTGGTTTAGTGCTAG: 4.58 z-score
TACGATCTCAGTTTCGAGACGTGCTAG: 2.44 z-score
TTACAATTTGCTTTAGTCATGTGCTAG: 0.428 z-score
TTAGCTATCGGGACTGGATTAGTGCTA: -0.0809 z-score
GACGGTTTCGGGACTGAGGACGTGCTA: 4.98 z-score
ATGTGTTTAAGAATGTTTTTGTGCTAG: -0.0716 z-score

Some of these lines once more (block 5):
GACGGTCTCCTTATCCCGACGTGCTAG: 3.28 z-score
CTTGCTTGGTGTCTCTGGCCGTGCTAG: -0.587 z-score
TTAGGTGTCCTTTCCCTTTAGTGCTAG: 6.02 z-score
TTAGGTATCGGCCTCGGTTAGTGCTAG: 0.315 z-score
TTAGGATTCGACTATCGGTTAGTGCTA: 0.536 z-score
TTAGATCTCAGGCTGGATTAGTGCTAG: -0.496 z-score
GGAGGGGGGCGGGGCGGTGGGTGCTAG: 0.0875 z-score
